# Measured values from different studies.
# “And” joins repeats or separate records; there may be more than shown. ± marks the error that the study gave.
# Organism: Escherichia coli
Compound,assay,test system,conditions,scale,measurement,result
N=C(N)c1cccc(OCc2ccccc2COc2cccc(C(=N)N)c2)c1,,BW25113,"concentration not given, lowest-FICI combination, with: rifampicin",,MIC in combination,100 µg/mL
C#CCCCC(=O)NCC,"LuxR reporter, antagonist",DH5α sensor strain,"20 µM, with: OHHL 200 nM",,inhibition,15%
CC(C)Oc1c(NC(=O)c2ccc(NC(=O)[C@H](CC(N)=O)NC(=O)c3ccc(NC(=O)c4ccc(C#N)cc4)cc3)cc2)ccc(C(=O)Nc2ccc(C(=O)O)cc2)c1O,,"ATCC 25922, neutropenic mouse thigh infection","intravenous, 40 mg/kg/day, 10 mg/kg/dose",baseline: vehicle,bacterial burden reduction,5.32 log10 CFU/g
CC(=O)Oc1ccc(-c2c(C(N)=O)c(N)n(N)c(=O)c2C#N)cc1,time-kill,,"1 x MIC, 120 min, 2 h",,viable count,0 CFU
C[C@@H](O)[C@H]1C(=O)N2C(C(=O)O)=C(SCCN=CN)C[C@H]12,,"2904, female ICR mice, peritonitis, kidney","dose not given, 168 h",,bacterial load,4.45 log CFU and 3.64 log CFU and 3.73 log CFU and 4.32 log CFU and 4.68 log CFU and 3.3 log CFU
COC(=O)[C@H]1[C@H]2C[C@@H]3c4[nH]c5cc(OC)ccc5c4CCN3C[C@H]2C[C@@H](OC(=O)c2cc(OC)c(OC)c(OC)c2)[C@@H]1OC,"tetracycline MIC, checkerboard",tetracycline-resistant (pBR322),"128 µM, with: tetracycline",baseline: MIC alone over combination,fold enhancement,4 fold
Nc1ccc2c(c1)B(O)OC2,,ATCC 25922,"16xMIC, 1 h",,post-antibiotic effect,0.85 ± 0.04 h
N=C(N)c1ccc(OCCCCCCCOc2ccc(C(=N)N)cc2)cc1,,BW25113,"concentration not given, lowest-FICI combination, with: rifampicin",,MIC in combination,12.5 µg/mL
OC[C@H]1O[C@@H]2O[C@H]3[C@H](O)[C@@H](O)[C@@H](O[C@H]4[C@H](O)[C@@H](O)[C@@H](O[C@H]5[C@H](O)[C@@H](O)[C@@H](O[C@H]6[C@H](O)[C@@H](O)[C@@H](O[C@H]7[C@H](O)[C@@H](O)[C@@H](O[C@H]8[C@H](O)[C@@H](O)[C@@H](O[C@H]1[C@H](O)[C@H]2O)O[C@@H]8CO)O[C@@H]7CO)O[C@@H]6CO)O[C@@H]5CO)O[C@@H]4CO)O[C@@H]3CO,"LuxR reporter, antagonist",DH5α sensor strain,"100 µM, with: OHHL 200 nM",,inhibition,-7 ± 2%
N=C(N)c1ccc(OCCS(=O)(=O)CCOc2ccc(C(=N)N)cc2)cc1,,BW25113,"concentration not given, lowest-FICI combination, with: rifampicin",,MIC in combination,3.13 µg/mL
N#Cc1c(-c2ccc(OCc3ccccc3)cc2)c(C(N)=O)c(N)n(N)c1=O,time-kill,,"1 x MIC, 0 h",,viable count,6.46 log CFU/mL

# A few entries again:
Compound,assay,test system,conditions,scale,measurement,result
C#CCCCC(=O)NCC,"LuxR reporter, antagonist",DH5α sensor strain,"20 µM, with: OHHL 200 nM",,inhibition,15%
C[C@@H](O)[C@H]1C(=O)N2C(C(=O)O)=C(SCCN=CN)C[C@H]12,,"2904, female ICR mice, peritonitis, kidney","dose not given, 168 h",,bacterial load,4.45 log CFU and 3.64 log CFU and 3.73 log CFU and 4.32 log CFU and 4.68 log CFU and 3.3 log CFU
